{"data": "Results from different studies", "TDP1": "Tyrosyl-DNA phosphodiesterase 1 (TDP1, Homo sapiens, UniProt Q9NUW8)", "note": "Lines come from different studies, so protocols differ.", "UniProt Q9NUW8, sequence (whole entry, looked up)": "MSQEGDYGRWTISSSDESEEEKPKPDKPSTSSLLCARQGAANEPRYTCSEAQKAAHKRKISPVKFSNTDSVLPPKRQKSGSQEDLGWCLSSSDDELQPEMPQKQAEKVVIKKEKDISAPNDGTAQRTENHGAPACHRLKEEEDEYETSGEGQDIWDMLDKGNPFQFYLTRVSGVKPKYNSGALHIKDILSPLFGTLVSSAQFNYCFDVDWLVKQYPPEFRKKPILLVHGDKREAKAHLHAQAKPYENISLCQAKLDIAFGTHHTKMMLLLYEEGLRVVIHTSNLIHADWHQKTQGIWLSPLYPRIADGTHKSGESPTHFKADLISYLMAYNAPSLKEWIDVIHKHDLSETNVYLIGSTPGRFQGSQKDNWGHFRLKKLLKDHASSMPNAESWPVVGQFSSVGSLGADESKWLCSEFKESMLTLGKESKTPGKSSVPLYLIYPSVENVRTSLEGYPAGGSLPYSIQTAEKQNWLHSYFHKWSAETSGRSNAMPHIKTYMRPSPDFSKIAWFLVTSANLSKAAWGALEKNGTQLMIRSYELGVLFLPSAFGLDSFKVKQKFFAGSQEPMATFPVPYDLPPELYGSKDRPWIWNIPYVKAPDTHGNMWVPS"}
{"Compound": "CNS(=O)(=O)Nc1nccc(Cc2c(C)c3ccc(Oc4ncccc4F)cc3oc2=O)c1F", "target or system": "EFE-184", "assay": "cell viability", "conditions": "7 days", "quantity": "IC50", "result": "> 1 µM"}
{"Compound": "Cn1ncc2cc(-c3cncc(Cl)c3N3CCC4(CCNC4=O)CC3)ccc21", "target or system": "LS174T", "assay": "gene expression, microarray, item: AQP1 mRNA", "conditions": "concentration not given, 4 h", "how to read": "reference: untreated cells", "quantity": "log2 fold change", "result": 1.2}
{"Compound": "CC(C)c1ccc(N(C)c2ccc3c(c2)OCC[C@H]3CNc2cnccc2C(=O)O)cc1", "target or system": "143B", "assay": "cell viability, CellTiter-Glo", "conditions": "7 days", "quantity": "IC50", "result": "0.0144 µM"}
{"Compound": "Cc1ncsc1-c1ccc(C(C)NC(=O)C2CC(O)CN2C(=O)C(NC(=O)CCCCCCCCCCN2CCCC(Nc3ncc(Cl)c(Nc4ccccc4S(=O)(=O)C(C)C)n3)C2)C(C)(C)C)cc1 (centres unmarked)", "target or system": "22Rv1", "assay": "RNA-seq, item: TIGD2 mRNA", "conditions": "concentration not given", "how to read": "reference: DMSO", "quantity": "log2 fold change", "result": -1.54}
{"Compound": "CCN(CC)CC(=O)Nc1cccc(-n2cc(-c3ccc4ccc(-c5cn(-c6cccc(NC(=O)CN(CC)CC)c6)nn5)cc4c3)nn2)c1", "target or system": "RCC4", "assay": "PCR angiogenesis array, item: MMP9", "conditions": "5 x IC50, 2 h, normoxia", "how to read": "reference: untreated", "quantity": "fold regulation", "result": -1.09}
{"Compound": "CN1CCCNC(=O)c2cccc(c2)C(=O)NCCCN(C)CCCNc2cccc3c2C(=O)c2cccc(c2C3=O)NCCC1", "target or system": "SAS", "assay": "RNA-Seq, item: NEK9 mRNA", "conditions": "1 µM, 6 h", "how to read": "reference: untreated cells", "quantity": "log2 fold change", "result": 1.11}
{"Compound": "O=C(C[Se]C(=O)c1cc2ccccc2s1)Nc1cccc(C(F)(F)F)c1", "target or system": "NCI60 CNS subpanel", "assay": "NCI60 five-dose screen", "quantity": "mean TGI", "result": "3.27 µM"}
{"Compound": "Cn1c(N)c(C=NOCc2ccc3nc(-c4ccccc4)c(Nc4ccc(C(=O)O)cc4)n3c2)c(=O)n(C)c1=O", "target or system": "TDP1", "assay": "enzyme activity, inhibitor", "conditions": "100 µM, unpurified compound", "quantity": "inhibition", "result": "-4.9%"}
{"Compound": "C=CC(=O)Nc1cc(Nc2nccc(-c3c(-c4cc(F)ccc4OC)n(C)c4ccccc34)n2)c(OC)cc1N(C)CCN(C)C", "target or system": "NCI-H1975", "assay": "cell growth or viability, MTT", "conditions": "0.5 µM, 72 h", "quantity": "inhibition", "result": "44.9%"}
{"Compound": "CO[C@@H]1[C@@H](OC(N)=O)[C@@H](O)[C@H](Oc2ccc3c(O)c(NC(=O)c4ccc(O)c(CC=C(C)C)c4)c(=O)oc3c2C)OC1(C)C", "target or system": "DLD-1 BRCA2-/-", "conditions": "50 µM, replicate 1", "quantity": "colony count", "result": 8.5}
{"Compound": "Cc1nn(Cc2ccccc2Cl)c(Cl)c1C=NOCc1ccc2nc(-c3ccccc3)c(Nc3ccc(C(=O)O)cc3)n2c1 (mixture of isomers)", "target or system": "TDP1", "assay": "enzyme activity, inhibitor", "conditions": "100 µM, unpurified compound", "quantity": "inhibition", "result": "-17.1%"}
{"note": "For quick reference, copied from above:"}
{"Compound": "CC(C)c1ccc(N(C)c2ccc3c(c2)OCC[C@H]3CNc2cnccc2C(=O)O)cc1", "target or system": "143B", "assay": "cell viability, CellTiter-Glo", "conditions": "7 days", "quantity": "IC50", "result": "0.0144 µM"}
